Results of several laboratories.
Protocols differ between the studies behind these lines. Several values in a cell are separate wells, animals, samples, runs or records. Numbers after ± are the reported error.

Structure (SMILES) | test system | setting | scale | fluorescence quantum yield
CCCCN1C(=O)c2cccc3c(NCCCCCN4CCOCC4)ccc(c23)C1=O | water | pH 6 | relative to: fluorescein/0.1 N NaOH | 0.27
CC1=CC(C)=[N+]2C1=C(CCCC(=O)NCCCCCC(=O)NCCCCCC(=O)NCCCC[C@H](NC(=O)N[C@@H](CCC(=O)O)C(=O)O)C(=O)O)c1c(C)cc(C)n1[B-]2(F)F | acetonitrile/water | – | – | 81 ± 5%
COc1cc(/C=C2\SC(=S)NC2=O)cc(OC)c1O | PBS | free ligand | – | 0.11%
CC1=CC(C)=[N+]2C1=C(c1ccc(C[P+](c3ccccc3)(c3ccccc3)C3CCCCC3)cc1)c1c(C)cc(C)n1[B-]2(F)F | PBS | 10 µM, pH 7.4, 298 K, together with: fluorescein standard | – | 0.62
COc1cc(OC)cc(C2=C3C(C)=C(I)C(/C=C/c4cccs4)=[N+]3[B-](F)(F)n3c(/C=C/c4cccs4)c(I)c(C)c32)c1 | THF | – | relative to: methylene blue | 0.01
COc1ccc2cc(-c3ccc(-c4ccc(C)cn4)nc3)oc2c1 | DMSO | together with: quinine bisulfate reference | – | 0.82
COc1cc(OC)cc(C2=C3C(C)=C(I)C(C)=[N+]3[B-](F)(F)n3c(/C=C/c4cccs4)c(I)c(C)c32)c1 | THF | – | relative to: methylene blue | 0.3
COc1ccc(/C=C/c2ccc(-c3ccc(C)cn3)nc2)cc1 | aqueous HEPES buffer | pH 7.4, zinc-free ligand, together with: quinine bisulfate reference | – | 0.05
CCOC(=O)c1[nH]c(C)c(/C=C/C2=[N+]3C(=C(c4cc(OC)cc(OC)c4)c4c(C)c(I)c(/C=C/c5c(C)[nH]c(C(=O)OCC)c5C)n4[B-]3(F)F)C(C)=C2I)c1C | dichloromethane | – | relative to: methylene blue | 0.1
CC1=[N+]2C(=C(CCl)c3ccc(C)n3[B-]2(F)F)C=C1 | PBS/DMSO 90:10 v/v | about 1 µM, pH 8.0 | – | 26.1 ± 0.8%
CCn1cc(/C=C/c2sc3ccccc3[n+]2CC)c2ccccc21 | DMSO | – | relative to: fluorescein | 0.009
COc1cc(OC)cc(C2=C3C(C)=C(I)C(/C=C/c4c[nH]c5ccc([N+](=O)[O-])cc45)=[N+]3[B-](F)(F)n3c(/C=C/c4c[nH]c5ccc([N+](=O)[O-])cc45)c(I)c(C)c32)c1 | THF | – | relative to: methylene blue | 0.03
COCCOCCOCCOCCOCCOCCOCCOCCC(=O)NCCCc1cc2cc3nc(cc4[nH]c(cc5nc(c(OC)c1[nH]2)C(=O)C5(C)C)cc4CCc1ccc(C(=O)O)cc1)CC3(C)C | DMF | room temperature | – | 0.19
Nc1nc(-n2nnc3c2CCC2C(CO)C2CC3)nc2c1ncn2C1OC(CO)C(O)C1O (mixture of isomers) | methanol | – | relative to: quinine sulfate | 0.02
COCCOCCOCCOCCC(=O)NCc1cc(CNC(=O)CCOCCOCCOCCOC)cc(-c2cc3cc4nc(c(-c5ccc(CCC(=O)O)cc5)c5[nH]c(cc6nc(c(OC)c2[nH]3)CC6(C)C)cc5-c2cc(CNC(=O)CCOCCOCCOCCOC)cc(CNC(=O)CCOCCOCCOCCOC)c2)CC4(C)C)c1 | water with 5% DMF | room temperature | – | 0.098
Cc1ccc(-c2ccc(-c3cc4sccc4o3)cn2)nc1 | toluene | together with: quinine bisulfate reference | – | 0.58
NCCC(=O)N1Cc2ccccc2-c2c(nnn2-c2nc(N)c3ncn(C4OC(CO)C(O)C4O)c3n2)-c2ccccc21 (mixture of isomers) | methanol | – | relative to: quinine sulfate | 0.106

Structure (SMILES) | test system | setting | scale | fluorescence quantum yield
CCn1cc(/C=C/c2ccc3ccccc3[n+]2CC)c2ccccc21 | methanol | – | relative to: fluorescein | 0.037
CC1(C)C(/C=C/C2=C(Cl)C(=C/C=C3/N(CCCCCC(=O)O)c4ccccc4C3(C)C)/C[N+](C)(C)C2)=[N+](CCCCCC(=O)O)c2ccccc21 | 10 mM PBS | pH 7.4, excitation 730 nm | – | 0.051
[C-]#[O+].[C-]#[O+].[C-]#[O+].[C-]#[O+].[C-]#[O+].[C-]#[O+].[Cl-].[Cl-].[Re+].[Re+].c1cnc(-c2ncccn2)nc1 | 10% DMSO | – | relative to: quinine sulfate | 0.0143 and 0.014
CN1CCC(C)(C)c2cc3c(-c4ccc(C(=O)N5CCCCC5)s4)c4ccc(=[N+](C)C)cc-4sc3cc21 | methanol | together with: excitation 532 nm | – | 0.09 ± 0.01
COc1cc(OC)cc(C2=C3C(C)=C(I)C(C)=[N+]3[B-](F)(F)n3c(/C=C/c4c[nH]c5ccccc45)c(I)c(C)c32)c1 | dichloromethane | – | relative to: methylene blue | 0.19
NCCC(=O)N1Cc2ccccc2-c2c(nnn2-c2nc3c(N)ncnc3n2C2OC(CO)C(O)C2O)-c2ccccc21 (mixture of isomers) | methanol | – | relative to: quinine sulfate | 0.017
CC1=CC(C)=[N+]2C1=C(c1ccc(C[P+](c3ccccc3)(c3ccccc3)c3ccccc3)cc1)c1c(C)cc(C)n1[B-]2(F)F | PBS | 10 µM, pH 7.4, 298 K, together with: fluorescein standard | – | 0.59
OC(Cc1cc(-c2ccc(C(O)C(F)(F)F)s2)sc1-c1ccc(-c2sc(-c3ccc(C(O)C(F)(F)F)s3)cc2CC(O)C(F)(F)F)s1)C(F)(F)F (stereo not drawn) | DMSO | – | relative to: fluorescein in NaOH | 0.27
COCCOCCOCCOCCOCCOCCOCCOCCOCCOCCOCCOCCOCCOCCOCCOCCOCCOCCOCCOCCOCCOCCNC(=O)CCC1(Cc2ccccc2)c2ccccc2-c2ccc(-c3sc(-c4c5c(c(-c6sc(-c7ccc8c(c7)C(CCC(=O)NCCOCCOCCOCCOCCOCCOCCOCCOCCOCCOCCOCCOCCOCCOCCOCCOCCOCCOCCOCCOCCOCCOC)(Cc7ccccc7)c7ccccc7-8)c7c6OCCO7)c6nsnc46)N=S=N5)c4c3OCCO4)cc21 (stereo not drawn) | aqueous solution | – | relative to: IR-26 in 1,2-dichloroethane | 0.98%
Nc1ncnc2c1nc(-n1nnc3c1CCC1C(CO)C1CC3)n2C1OC(CO)C(O)C1O (mixture of isomers) | methanol | – | relative to: quinine sulfate | 0.006
COC(=O)c1cc(=O)n(C)c2c(-c3ccc(OC)cc3)csc12 | dichloromethane | 10 µM | – | 0%
CCOC(=O)c1[nH]c(C)c(/C=C/c2c(I)c(C)c3n2[B-](F)(F)[N+]2=C(C)C(I)=C(C)C2=C3c2cc(OC)cc(OC)c2)c1C | DMSO | – | relative to: methylene blue | 0.23
O=c1[nH]c(=O)n(C2OC(CO)C(O)C2O)cc1-n1nnc2c1CCC1C(CO)C1CC2 (mixture of isomers) | methanol | – | relative to: quinine sulfate | 0.011
CN1CCC(C)(C)c2cc3c(-c4ccc(C(=S)N5CCCCC5)s4)c4ccc(=[N+](C)C)cc-4sc3cc21 | methanol | together with: excitation 532 nm | – | 0.07 ± 0.01
CC1=CC(C)=[N+]2C1=C(CCCC(=O)NCCCCCC(=O)NCCCC[C@H](NC(=O)N[C@@H](CCC(=O)O)C(=O)O)C(=O)O)c1c(C)cc(C)n1[B-]2(F)F | acetonitrile/water | – | – | 86 ± 5%
COC(=O)c1ccc(CCc2cc3cc4nc(c(OC)c5[nH]c(cc6nc(cc2[nH]3)CC6(C)C)cc5CCCNC(=O)OC(C)(C)C)C(=O)C4(C)C)cc1 | DMF | room temperature | – | 0.2

Repeated from above:
Structure (SMILES) | test system | setting | scale | fluorescence quantum yield
CC1=CC(C)=[N+]2C1=C(c1ccc(C[P+](c3ccccc3)(c3ccccc3)c3ccccc3)cc1)c1c(C)cc(C)n1[B-]2(F)F | PBS | 10 µM, pH 7.4, 298 K, together with: fluorescein standard | – | 0.59
OC(Cc1cc(-c2ccc(C(O)C(F)(F)F)s2)sc1-c1ccc(-c2sc(-c3ccc(C(O)C(F)(F)F)s3)cc2CC(O)C(F)(F)F)s1)C(F)(F)F (stereo not drawn) | DMSO | – | relative to: fluorescein in NaOH | 0.27
COCCOCCOCCOCCOCCOCCOCCOCCOCCOCCOCCOCCOCCOCCOCCOCCOCCOCCOCCOCCOCCOCCNC(=O)CCC1(Cc2ccccc2)c2ccccc2-c2ccc(-c3sc(-c4c5c(c(-c6sc(-c7ccc8c(c7)C(CCC(=O)NCCOCCOCCOCCOCCOCCOCCOCCOCCOCCOCCOCCOCCOCCOCCOCCOCCOCCOCCOCCOCCOCCOC)(Cc7ccccc7)c7ccccc7-8)c7c6OCCO7)c6nsnc46)N=S=N5)c4c3OCCO4)cc21 (stereo not drawn) | aqueous solution | – | relative to: IR-26 in 1,2-dichloroethane | 0.98%
Nc1ncnc2c1nc(-n1nnc3c1CCC1C(CO)C1CC3)n2C1OC(CO)C(O)C1O (mixture of isomers) | methanol | – | relative to: quinine sulfate | 0.006
